Experimental data gathered from unrelated publications.
Compare with care: the assays were run in different laboratories. Values joined by “and” are separate records of one study, mostly repeats; a detail may differ.
Target: Casein kinase I isoform gamma-3 (CSNK1G3, Homo sapiens, UniProt Q9Y6M4)

SMILES	test	conditions	scale	endpoint	result
CN1CC[C@@H](COc2cnc(C#N)cc2-c2ccn3nc(NC(=O)C4CC4)cc3c2)C1	enzyme activity, inhibitor	1 µM	–	inhibition	-5%
COc1c(Cl)cccc1Nc1c(-c2ccncc2C#C[C@@]2(C)CCCN2C(=O)/C=C/CN(C)C)[nH]c2c1C(=O)NCC2	cell-free assay, competition with immobilised ligand	3 µM	–	remaining binding	97%
C=CC(=O)N1CCCC(n2c(=O)c3ncccc3n(Cc3ccc(Oc4ccccc4)cc3)c2=O)C1 (stereo not shown)	cell-free assay, competition with immobilised ligand	1 µM	–	remaining binding	100%
CNC1C[S+]2CC[S+]3CC[S+](C1)[Ru-4]321([N]=C=S)[n]2c3ccc(OC)cc3c3c4c(c5cc(F)c[n+]1c5c32)C(=O)NC4=O (stereo not shown)	KinomeScan	0.1 µM	reference: untreated	remaining binding	100%
NC(=O)[C@@H](O)C[C@H]1CCc2sc3ncnc(O[C@H]4CC[C@H](N5CCOCC5)CC4)c3c21	enzyme activity, inhibitor	10 µM	–	inhibition	8%
C=CC(=O)Nc1cccc(-c2cnc3[nH]cc(C(=O)NC(C)(C)C)c3n2)c1	kinase activity	0.1 µM	–	inhibition	4% and 6%
Cc1nc2c(F)cc(-c3nc(Nc4ccc(CNC(=O)CCCCCCC(=O)NO)cc4)ncc3F)cc2n1C(C)C	enzyme activity, inhibitor	1 µM	–	inhibition	33%
Nc1ncc2c(n1)-c1c([nH]c3ccc(C4=CCOCC4)cc13)CCC2	binding, competition with immobilised ligand	1 µM	–	remaining binding	93%
C=CC(=O)N1CCc2ccc(-n3c(=O)ccc4cnc5ccc(-c6cnn(C)c6)cc5c43)cc21	KINOMEscan	1 µM	reference: DMSO control	remaining binding	99%
CNC(=O)C[C@H](Cc1ccc(C#N)cc1)NC(=O)c1cc(-c2ccc(CN[C@H](C)c3ccc(C)cc3)o2)ccc1Cl	enzyme activity, inhibitor	1 µM	–	activity vs control	94%
Cc1cnc2nc1Nc1cccc(c1)COC/C=C/COCc1cc(ccc1OCCN1CCOCC1)N2	–	concentration not given	–	percent of control	97%
COCC12C(=O)NC3C4(C(OC)CC1O)C1CC5(O)C(OC)C(O)C(OC(C)=O)(C1C5OC(=O)c1ccccc1)C3(O)C(OC)C24 (stereo not shown)	kinase activity, inhibitor, ProQinase kinase profiling	25 µM	reference: control	remaining activity	92% and 94%
Cc1ccc(-c2c(/C=C(\C#N)C(=O)NC(C)C)n(CCCO)c3ncnc(N)c23)cc1	cell-free assay, competition with immobilised ligand	1 µM	–	remaining binding	100%
Cc1cccc(O[C@H]2CCC[C@@H](C(C)CNCc3ccncc3)C2)c1 (relative stereo)	kinase activity, kinome panel screening	10 µM	–	inhibition	-3%
COc1ccc(NC(=O)Nc2ccc3c(c2)C(=O)N(C(C)CO)CC(C)C(CN(C)Cc2ccc4c(c2)OCO4)O3)cc1 (stereo not shown)	kinase activity, KinaseProfiler	0.03 µM, species human	reference: control	remaining activity	99%
COc1cc(Nc2nccc(-c3cnn4nc(OC)ccc34)n2)cc(C(F)(F)F)c1	binding, competition with immobilised ligand	1 µM	–	remaining binding	100%

Some of these lines once more:
SMILES	test	conditions	scale	endpoint	result
Cc1cccc(O[C@H]2CCC[C@@H](C(C)CNCc3ccncc3)C2)c1 (relative stereo)	kinase activity, kinome panel screening	10 µM	–	inhibition	-3%
COc1ccc(NC(=O)Nc2ccc3c(c2)C(=O)N(C(C)CO)CC(C)C(CN(C)Cc2ccc4c(c2)OCO4)O3)cc1 (stereo not shown)	kinase activity, KinaseProfiler	0.03 µM, species human	reference: control	remaining activity	99%
